# Measured values collected from several papers.
# Numbered parts are unrelated; each lists some results of a single study.
# Chain of UniProt Q9H4A3 (whole entry, looked up): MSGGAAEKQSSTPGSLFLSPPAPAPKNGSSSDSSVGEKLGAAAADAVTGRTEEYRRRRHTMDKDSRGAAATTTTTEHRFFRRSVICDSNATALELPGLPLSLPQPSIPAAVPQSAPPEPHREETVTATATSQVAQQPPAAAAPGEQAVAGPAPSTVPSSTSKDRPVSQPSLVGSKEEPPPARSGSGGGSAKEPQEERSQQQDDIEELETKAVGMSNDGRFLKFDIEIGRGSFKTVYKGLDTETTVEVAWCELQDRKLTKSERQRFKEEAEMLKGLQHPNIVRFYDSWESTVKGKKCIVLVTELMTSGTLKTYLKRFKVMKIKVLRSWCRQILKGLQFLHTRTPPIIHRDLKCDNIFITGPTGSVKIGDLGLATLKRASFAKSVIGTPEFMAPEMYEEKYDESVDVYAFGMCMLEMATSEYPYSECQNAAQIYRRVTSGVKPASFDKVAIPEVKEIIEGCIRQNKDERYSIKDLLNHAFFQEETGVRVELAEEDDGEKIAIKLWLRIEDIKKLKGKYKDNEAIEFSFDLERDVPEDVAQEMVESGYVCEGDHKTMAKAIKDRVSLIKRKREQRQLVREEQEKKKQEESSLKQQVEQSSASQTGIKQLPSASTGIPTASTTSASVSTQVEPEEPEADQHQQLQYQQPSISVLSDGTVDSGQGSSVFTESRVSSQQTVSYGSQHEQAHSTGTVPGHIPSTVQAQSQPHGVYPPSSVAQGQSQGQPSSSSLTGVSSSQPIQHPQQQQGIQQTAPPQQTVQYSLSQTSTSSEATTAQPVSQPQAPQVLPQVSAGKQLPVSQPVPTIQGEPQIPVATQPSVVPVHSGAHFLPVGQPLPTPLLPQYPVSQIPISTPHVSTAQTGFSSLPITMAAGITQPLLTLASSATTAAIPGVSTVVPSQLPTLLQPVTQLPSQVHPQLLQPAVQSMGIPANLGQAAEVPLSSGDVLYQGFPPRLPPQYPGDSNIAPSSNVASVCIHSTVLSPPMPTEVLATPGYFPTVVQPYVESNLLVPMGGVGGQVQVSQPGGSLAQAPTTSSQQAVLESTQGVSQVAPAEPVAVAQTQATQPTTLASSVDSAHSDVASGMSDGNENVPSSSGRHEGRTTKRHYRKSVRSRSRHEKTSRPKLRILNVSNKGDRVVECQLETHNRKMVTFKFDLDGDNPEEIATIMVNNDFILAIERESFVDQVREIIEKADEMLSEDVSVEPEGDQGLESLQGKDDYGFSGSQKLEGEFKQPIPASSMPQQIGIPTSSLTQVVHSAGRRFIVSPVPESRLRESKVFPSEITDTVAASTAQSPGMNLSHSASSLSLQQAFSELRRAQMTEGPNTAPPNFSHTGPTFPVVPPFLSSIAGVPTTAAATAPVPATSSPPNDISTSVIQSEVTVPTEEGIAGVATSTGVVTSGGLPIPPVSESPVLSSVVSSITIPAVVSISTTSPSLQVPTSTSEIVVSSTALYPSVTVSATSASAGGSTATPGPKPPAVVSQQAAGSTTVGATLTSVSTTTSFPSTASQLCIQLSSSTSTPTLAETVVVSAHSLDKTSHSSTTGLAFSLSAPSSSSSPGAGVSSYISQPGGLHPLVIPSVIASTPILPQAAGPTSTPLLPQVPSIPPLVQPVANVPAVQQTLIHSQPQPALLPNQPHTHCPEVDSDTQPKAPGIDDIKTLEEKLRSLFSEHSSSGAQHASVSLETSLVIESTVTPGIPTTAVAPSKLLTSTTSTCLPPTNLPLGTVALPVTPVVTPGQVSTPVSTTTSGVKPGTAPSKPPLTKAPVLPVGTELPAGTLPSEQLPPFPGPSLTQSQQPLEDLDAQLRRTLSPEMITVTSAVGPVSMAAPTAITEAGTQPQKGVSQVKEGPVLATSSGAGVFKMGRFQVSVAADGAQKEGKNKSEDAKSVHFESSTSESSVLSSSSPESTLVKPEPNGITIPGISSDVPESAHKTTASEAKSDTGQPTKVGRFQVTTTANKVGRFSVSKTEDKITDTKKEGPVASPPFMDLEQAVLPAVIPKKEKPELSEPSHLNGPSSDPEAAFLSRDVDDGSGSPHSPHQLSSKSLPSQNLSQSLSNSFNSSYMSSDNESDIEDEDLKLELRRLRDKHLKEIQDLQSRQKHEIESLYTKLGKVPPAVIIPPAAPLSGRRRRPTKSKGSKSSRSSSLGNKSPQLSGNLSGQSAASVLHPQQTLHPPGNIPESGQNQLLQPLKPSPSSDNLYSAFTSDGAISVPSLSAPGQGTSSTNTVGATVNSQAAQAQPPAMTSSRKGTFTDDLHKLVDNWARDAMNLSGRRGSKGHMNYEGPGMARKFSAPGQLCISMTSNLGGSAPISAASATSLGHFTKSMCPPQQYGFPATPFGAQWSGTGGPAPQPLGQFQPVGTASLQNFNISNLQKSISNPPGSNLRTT
# Chain of UniProt Q13177 (whole entry, looked up): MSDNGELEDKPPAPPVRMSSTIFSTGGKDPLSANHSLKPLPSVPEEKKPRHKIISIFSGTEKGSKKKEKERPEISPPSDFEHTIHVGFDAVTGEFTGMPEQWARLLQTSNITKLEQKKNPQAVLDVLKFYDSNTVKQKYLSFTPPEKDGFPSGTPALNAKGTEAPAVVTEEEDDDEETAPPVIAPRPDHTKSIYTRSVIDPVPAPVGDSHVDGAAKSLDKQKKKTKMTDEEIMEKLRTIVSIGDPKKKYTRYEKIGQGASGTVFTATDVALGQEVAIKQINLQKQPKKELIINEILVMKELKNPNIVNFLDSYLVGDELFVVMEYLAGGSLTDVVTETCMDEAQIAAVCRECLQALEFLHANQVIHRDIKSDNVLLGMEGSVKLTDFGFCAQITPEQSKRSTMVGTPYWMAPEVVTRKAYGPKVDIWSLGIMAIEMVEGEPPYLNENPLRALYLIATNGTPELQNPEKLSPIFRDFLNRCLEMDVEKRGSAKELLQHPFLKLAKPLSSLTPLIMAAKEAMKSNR
# Chain of UniProt Q9P1W9 (whole entry, looked up): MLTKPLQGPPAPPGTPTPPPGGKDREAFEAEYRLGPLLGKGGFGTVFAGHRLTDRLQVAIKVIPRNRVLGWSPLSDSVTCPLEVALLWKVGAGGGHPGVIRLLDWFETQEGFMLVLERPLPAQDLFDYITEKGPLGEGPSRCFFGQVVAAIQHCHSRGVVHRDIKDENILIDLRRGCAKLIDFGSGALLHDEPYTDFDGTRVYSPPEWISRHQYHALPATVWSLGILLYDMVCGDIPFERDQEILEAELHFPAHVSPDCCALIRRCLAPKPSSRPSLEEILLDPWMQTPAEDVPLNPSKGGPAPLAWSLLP
# Chain of UniProt Q15759 (whole entry, looked up): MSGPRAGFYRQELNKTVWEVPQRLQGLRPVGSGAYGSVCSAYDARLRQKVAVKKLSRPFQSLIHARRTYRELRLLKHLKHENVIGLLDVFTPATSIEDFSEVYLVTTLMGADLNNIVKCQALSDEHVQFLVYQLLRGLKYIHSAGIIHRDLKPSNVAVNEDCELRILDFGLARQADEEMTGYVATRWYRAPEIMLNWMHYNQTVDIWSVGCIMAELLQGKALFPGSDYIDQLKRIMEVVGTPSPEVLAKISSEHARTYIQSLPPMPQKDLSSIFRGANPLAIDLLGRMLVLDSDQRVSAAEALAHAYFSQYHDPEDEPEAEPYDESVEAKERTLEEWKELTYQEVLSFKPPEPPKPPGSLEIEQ

# Sample 1 — read-out: cell-free assay; concentration: 10 µM
# Target: 5-hydroxytryptamine receptor 5A (HTR5A, Homo sapiens, UniProt P47898)
# Chain of UniProt P47898 (whole entry, looked up): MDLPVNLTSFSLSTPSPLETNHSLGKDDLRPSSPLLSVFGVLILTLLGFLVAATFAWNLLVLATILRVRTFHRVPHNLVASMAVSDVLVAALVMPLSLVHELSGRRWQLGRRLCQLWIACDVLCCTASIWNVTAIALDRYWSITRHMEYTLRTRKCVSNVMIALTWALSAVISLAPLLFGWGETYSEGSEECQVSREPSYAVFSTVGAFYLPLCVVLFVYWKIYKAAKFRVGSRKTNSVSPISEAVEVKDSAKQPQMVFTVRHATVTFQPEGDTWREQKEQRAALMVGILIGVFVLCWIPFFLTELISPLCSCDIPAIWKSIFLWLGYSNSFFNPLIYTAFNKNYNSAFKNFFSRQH
SMILES,inhibition [%]
CNC(=O)Nc1ccc2c(c1)CC[C@]21OC(=O)N(CC(=O)N(Cc2ccc(F)cc2)[C@@H](C)C(F)(F)F)C1=O,5.99
Cc1c(NC(=O)c2cc(C(N)=O)nc3cc(F)ccc23)c(C(F)(F)F)nn1Cc1ccc(C#N)cc1,-2.35
Cc1cc2c(-c3ccco3)cnc(N[C@H]3CCN(C)C[C@@H]3C(=O)NC3CCCCC3)c2[nH]c1=O,10.1
CNC(=O)c1cc(C(=O)N[C@H]2[C@@H]3COC[C@@H]32)cc2c1O[C@H](CF)[C@H]2c1ccccc1,12.5
CCCOc1ccc([C@H]2[C@H](C(=O)O)[C@@H](c3ccc4c(c3)OCO4)CN2CC(=O)Nc2c(CC)cccc2CC)cc1,-0.22
NS(=O)(=O)c1cc(NC(=O)Cc2ccccc2)ccc1Oc1cccc(Cl)c1,1.47
COc1cc(C(=O)O)ncc1C#Cc1ccccc1NS(=O)(=O)c1cccc2c(N(C)C)ccnc12,12.2
O=C(NNS(=O)(=O)c1ccccc1)c1cc(-c2ccnnc2)ccc1F,-0.06
CC(C)(C)OC(=O)N1CCCC1CNC1CCC(c2cc(F)ccc2F)(S(=O)(=O)c2ccc(Cl)cc2)CC1 (stereo not shown),35
c1ccc(C2CCN(c3cnc4c(N5CCOCC5)nccn34)CC2)cc1,19
COCCOc1nc(-c2ccc(Cl)nc2)nc2c1CN(C(=O)c1ncn3ccccc13)CC2,-7.27
Nc1cnc(N2CCc3cc(S(=O)(=O)Nc4c(F)cc(Cl)cc4F)cc(N4CCCC4=O)c32)nc1,-4.87
CS(=O)(=O)N1CCCC(NC(=O)[C@H](CCC2CCCCC2)NC(=O)c2ccc(CNC(=O)c3cnc4ccccn34)cc2)C1 (stereo partly shown),3.1
CN1CCN(C(=O)C(C)(C)c2ccc(C(=O)Nc3cn4cc(-c5cc(C(C)(C)C)cc(C(C)(C)C)c5)ccc4n3)cc2)CC1,83.2

# Sample 2 — concentration: 5 µM
# SMILES: O=C(Nc1cnn(-c2csc(C(=O)NC3COC3)c2)c1)Nc1ccccc1Cl
target,assay,scale,remaining activity [%]
"Serine/threonine-protein kinase pim-2 (PIM2, Homo sapiens, UniProt Q9P1W9)",enzyme activity,reference: untreated control,96
"Tyrosine-protein kinase Lyn, isoform B (LYN, Homo sapiens, UniProt P07948)",enzyme activity,reference: untreated control,94.7
"Serine/threonine-protein kinase PAK 2 (PAK2, Homo sapiens, UniProt Q13177)",enzyme activity,reference: untreated control,86.2
"Citron Rho-interacting kinase (CIT, Homo sapiens, UniProt O14578)",enzyme activity,reference: untreated control,87.6
"Serine/threonine-protein kinase NLK (NLK, Homo sapiens, UniProt Q9UBE8)",enzyme activity,reference: untreated control,96.4
"Ephrin type-B receptor 2 (EPHB2, Homo sapiens, UniProt P29323)",enzyme activity,reference: untreated control,99.3
"Activin receptor type-1B (ACVR1B, Homo sapiens, UniProt P36896)",enzyme activity,reference: untreated control,112
"cGMP-dependent protein kinase 1 (PRKG1, Homo sapiens, UniProt Q13976)","kinase activity, kinase panel profiling",,110
"Protein kinase C theta type (PRKCQ, Homo sapiens, UniProt Q04759)",enzyme activity,reference: untreated control,100
"LIM domain kinase 2 (LIMK2, Homo sapiens, UniProt P53671)",enzyme activity,reference: untreated control,96.2
"Serine/threonine-protein kinase/endoribonuclease IRE2 (ERN2, Homo sapiens, UniProt Q76MJ5)",enzyme activity,reference: untreated control,100
"Dual specificity tyrosine-phosphorylation-regulated kinase 3 (DYRK3, Homo sapiens, UniProt O43781)",enzyme activity,reference: untreated control,92.6
"Tau-tubulin kinase 1 (TTBK1, Homo sapiens, UniProt Q5TCY1)",enzyme activity,reference: untreated control,92.6
"Proto-oncogene tyrosine-protein kinase ROS (ROS1, Homo sapiens, UniProt P08922)",enzyme activity,reference: untreated control,102
"Mitogen-activated protein kinase kinase kinase 3 (MAP3K3, Homo sapiens, UniProt Q99759)",enzyme activity,reference: untreated control,106
"Mitogen-activated protein kinase 11 (MAPK11, Homo sapiens, UniProt Q15759)",enzyme activity,reference: untreated control,98
"Homeodomain-interacting protein kinase 1 (HIPK1, Homo sapiens, UniProt Q86Z02)",enzyme activity,reference: untreated control,92.8
"Serine/threonine-protein kinase WNK1 (WNK1, Homo sapiens, UniProt Q9H4A3)",enzyme activity,reference: untreated control,97.4
"Tyrosine-protein kinase Blk (BLK, Homo sapiens, UniProt P51451)",enzyme activity,reference: untreated control,77.8

# Sample 3 — read-out: enzyme activity; action: inhibitor; concentration: 0.5 µM; reference: control
# Target: Myosin light chain kinase 2, skeletal/cardiac muscle (MYLK2, Homo sapiens, UniProt Q9H1R3)
# Chain of UniProt Q9H1R3 (whole entry, looked up): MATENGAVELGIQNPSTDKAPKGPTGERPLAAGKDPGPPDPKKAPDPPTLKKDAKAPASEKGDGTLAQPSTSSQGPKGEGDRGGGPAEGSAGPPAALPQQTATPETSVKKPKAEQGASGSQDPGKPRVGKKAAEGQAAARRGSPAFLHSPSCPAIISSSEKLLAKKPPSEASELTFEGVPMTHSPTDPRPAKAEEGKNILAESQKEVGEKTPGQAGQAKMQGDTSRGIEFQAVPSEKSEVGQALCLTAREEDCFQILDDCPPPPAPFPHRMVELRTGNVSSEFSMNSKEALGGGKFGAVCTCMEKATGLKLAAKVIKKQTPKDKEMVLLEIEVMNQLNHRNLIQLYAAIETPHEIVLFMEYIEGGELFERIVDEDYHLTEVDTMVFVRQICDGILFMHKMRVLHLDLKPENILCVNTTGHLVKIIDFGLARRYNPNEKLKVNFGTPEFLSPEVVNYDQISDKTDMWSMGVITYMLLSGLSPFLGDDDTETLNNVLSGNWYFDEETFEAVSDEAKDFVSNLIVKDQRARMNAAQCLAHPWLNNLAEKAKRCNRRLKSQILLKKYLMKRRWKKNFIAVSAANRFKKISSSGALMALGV
SMILES,remaining activity
CC#CC(=O)Nc1cc2c(Nc3ccc(F)c(Cl)c3)ncnc2cn1,99.9%
Cc1cc(Nc2nc(-c3ccccc3)nc3ccccc23)n[nH]1,62.8%
N#CC(=C(N)Sc1ccc(N)cc1)c1ccccc1C(F)(F)F,100%
CCCC(=O)Oc1ccc2[nH]c(C(=O)c3cc4ccccc4[nH]3)cc2c1,98.2%
CSc1nc(-c2ccnc(N[C@@H](C)c3ccccc3)c2)c(-c2ccc(F)cc2)[nH]1 (racemic),102%
Nc1ncnc2c1cnn2-c1ccccc1,99.9%
CC(=O)c1ccc(N2CCOCC2)cc1O,98.6%
O=C1Cc2c([nH]c3ccc([N+](=O)[O-])cc23)-c2ccccc2N1,94.8%
CCc1[nH]c(-c2ccc(OC)cc2)nc1-c1ccncc1,101%
COc1ccc(S(=O)(=O)N(CCO)c2ccccc2CN(C)CC=Cc2ccc(Cl)cc2)cc1,97.8%
Nc1nccc(-c2c(-c3ccc(F)cc3)ncn2C2CCNCC2)n1,103%
Cc1ccc(NC2=CC(=O)c3sc(C)nc3C2=O)cc1,92.8%
O=S(=O)(NCCNC/C=C/c1ccc(Br)cc1)c1cccc2cnccc12,96.5%
Nc1nc(Nc2ccc(S(N)(=O)=O)cc2)nn1C(=O)c1c(F)cccc1F,96.1%
Oc1ccc(Nc2nc(-c3ccc(Cl)cc3)cs2)cc1,97.1%
CC[n+]1c(/C=C/N(C)c2ccccc2)n(-c2ccccc2)c2ccc(-c3nc4ccccc4s3)cc21,95.8%
Cc1cncc2cccc(S(=O)(=O)N3CCCN(C(=O)CN)C[C@@H]3C)c12,101%
NC(=O)c1ccc(N(C(N)=O)c2c(F)cccc2F)nc1-c1ccc(F)cc1F,101%
COc1cc(Nc2c(C#N)cnc3cc(OCCCN4CCN(C)CC4)c(OC)cc23)c(Cl)cc1Cl,32.1%
CC(C)(C)n1nc(Cc2cccc3ccccc23)c2c(N)ncnc21,96%
O=C1NC(=O)C(c2c[nH]c3ccccc23)=C1c1c[nH]c2ccccc12,91.9%
Fc1ccc(-c2nc3n(c2-c2ccncc2)CCS3)cc1,101%

# Sample 4 — read-out: enzyme activity; action: inhibitor; concentration: 10 µM
# Target: Calcium/calmodulin-dependent protein kinase type II subunit alpha (CAMK2A, Homo sapiens, UniProt Q9UQM7)
# Chain of UniProt Q9UQM7 (whole entry, looked up): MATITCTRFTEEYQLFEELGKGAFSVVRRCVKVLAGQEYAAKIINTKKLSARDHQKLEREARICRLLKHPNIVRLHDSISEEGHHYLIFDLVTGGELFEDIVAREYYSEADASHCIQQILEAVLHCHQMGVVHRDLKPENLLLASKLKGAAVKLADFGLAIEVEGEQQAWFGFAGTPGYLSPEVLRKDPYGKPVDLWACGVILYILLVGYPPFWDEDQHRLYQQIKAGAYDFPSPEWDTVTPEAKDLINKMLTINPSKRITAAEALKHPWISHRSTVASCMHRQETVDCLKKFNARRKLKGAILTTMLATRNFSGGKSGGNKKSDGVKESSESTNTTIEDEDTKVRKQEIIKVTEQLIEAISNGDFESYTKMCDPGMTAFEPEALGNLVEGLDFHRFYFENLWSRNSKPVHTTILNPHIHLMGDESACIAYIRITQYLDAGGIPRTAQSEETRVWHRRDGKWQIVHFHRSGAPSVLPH
Structure (SMILES),inhibition
CC(C)(O)C(=O)O,-26%
COc1ccc2cc3n(c(=O)c2c1OC)CCc1cc2c(cc1-3)OCO2,-20%
COc1cccc2c1C(=O)c1c(O)c3c(c(O)c1C2=O)C[C@@](O)(C(C)=O)C[C@@H]3O[C@H]1C[C@H](N)[C@H](O)[C@H](C)O1,22%
O=c1cc(-c2ccc(O)c(O)c2)oc2c([C@@H]3O[C@H](CO)[C@@H](O)[C@H](O)[C@H]3O)c(O)cc(O)c12,-17%
CCCCCc1cc(=O)c2ccccc2n1C,-33%
C/C(=C(\CCOP(=O)(O)O)SC(=O)c1ccccc1)N(C=O)Cc1cnc(C)nc1N,-5%
NC(=O)/C=C\C(=O)O,2%
COc1cc(C(=O)O)cc(O)c1O,-3%
COc1ccc2c(c1)N(C[C@H](C)CN(C)C)c1ccccc1S2,-8%
CNc1ncnc2c1ncn2[C@@H]1O[C@H](CO)[C@@H](O)[C@H]1O,-58%
O=C1CC(c2ccc(O)cc2)Oc2cc(O)cc(O)c21 (racemic),18%
C[C@@H]1NC(=O)N[C@@H]1CCCCCC(=O)O,-6%
CC(C)(CC(=O)O)C(=O)O,7%
CC(=O)OCC1=CO[C@@H](OC(=O)CC(C)C)[C@H]2C1=C[C@H](OC(=O)CC(C)C)[C@]21CO1,-19%
COC(=O)C1=C(C)NC(C)=C(C(=O)O[C@H]2CCN(Cc3ccccc3)C2)[C@H]1c1cccc([N+](=O)[O-])c1,-8%
